Results of several laboratories.
Numbered parts are unrelated; each lists some results of a single study.
Sequence of UniProt P21554 (whole entry, looked up): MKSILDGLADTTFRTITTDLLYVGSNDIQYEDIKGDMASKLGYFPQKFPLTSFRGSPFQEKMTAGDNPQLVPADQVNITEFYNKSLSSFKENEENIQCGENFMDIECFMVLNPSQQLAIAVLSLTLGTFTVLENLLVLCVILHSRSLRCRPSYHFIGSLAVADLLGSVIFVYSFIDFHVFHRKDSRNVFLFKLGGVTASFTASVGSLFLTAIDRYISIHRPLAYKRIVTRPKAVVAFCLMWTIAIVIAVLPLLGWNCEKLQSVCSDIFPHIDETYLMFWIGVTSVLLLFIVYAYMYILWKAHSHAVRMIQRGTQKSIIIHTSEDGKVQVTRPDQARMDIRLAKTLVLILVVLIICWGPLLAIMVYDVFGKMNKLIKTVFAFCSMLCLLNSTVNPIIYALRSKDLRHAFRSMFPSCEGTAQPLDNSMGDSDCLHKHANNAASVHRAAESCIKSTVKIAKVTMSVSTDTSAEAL
Sequence of UniProt Q16581 (whole entry, looked up): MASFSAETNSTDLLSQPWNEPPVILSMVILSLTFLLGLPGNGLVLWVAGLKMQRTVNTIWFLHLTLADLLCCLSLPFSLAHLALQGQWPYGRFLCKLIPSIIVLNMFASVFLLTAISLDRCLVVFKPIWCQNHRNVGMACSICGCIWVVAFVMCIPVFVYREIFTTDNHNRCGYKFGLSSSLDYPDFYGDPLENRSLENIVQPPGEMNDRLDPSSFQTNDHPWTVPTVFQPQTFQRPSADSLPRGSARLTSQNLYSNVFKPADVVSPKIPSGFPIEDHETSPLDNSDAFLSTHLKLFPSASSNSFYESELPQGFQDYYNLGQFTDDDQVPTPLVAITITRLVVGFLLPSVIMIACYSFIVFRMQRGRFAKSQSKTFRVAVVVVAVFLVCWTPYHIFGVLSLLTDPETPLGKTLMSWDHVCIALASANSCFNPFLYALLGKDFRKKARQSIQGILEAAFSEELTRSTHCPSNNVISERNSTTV
Sequence of UniProt O15552 (whole entry, looked up): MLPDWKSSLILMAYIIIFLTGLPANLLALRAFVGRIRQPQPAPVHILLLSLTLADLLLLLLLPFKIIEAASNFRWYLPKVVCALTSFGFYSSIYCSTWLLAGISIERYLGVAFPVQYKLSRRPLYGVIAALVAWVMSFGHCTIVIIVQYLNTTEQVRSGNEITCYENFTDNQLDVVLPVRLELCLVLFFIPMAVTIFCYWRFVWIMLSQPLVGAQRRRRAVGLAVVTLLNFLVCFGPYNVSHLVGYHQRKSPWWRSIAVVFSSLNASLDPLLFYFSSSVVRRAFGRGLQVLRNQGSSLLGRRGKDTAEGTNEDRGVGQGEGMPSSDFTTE
Sequence of UniProt P41231 (whole entry, looked up): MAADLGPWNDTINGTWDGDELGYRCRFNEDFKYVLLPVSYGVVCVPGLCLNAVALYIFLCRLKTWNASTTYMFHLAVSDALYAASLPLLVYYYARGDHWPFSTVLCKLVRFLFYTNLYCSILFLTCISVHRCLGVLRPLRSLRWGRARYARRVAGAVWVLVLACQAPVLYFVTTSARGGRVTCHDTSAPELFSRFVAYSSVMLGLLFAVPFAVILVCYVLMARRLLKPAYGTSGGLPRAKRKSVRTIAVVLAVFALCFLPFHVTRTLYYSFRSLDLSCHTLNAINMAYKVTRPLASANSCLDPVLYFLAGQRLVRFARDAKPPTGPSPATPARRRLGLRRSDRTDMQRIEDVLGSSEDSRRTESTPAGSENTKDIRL
Sequence of UniProt P46095 (whole entry, looked up): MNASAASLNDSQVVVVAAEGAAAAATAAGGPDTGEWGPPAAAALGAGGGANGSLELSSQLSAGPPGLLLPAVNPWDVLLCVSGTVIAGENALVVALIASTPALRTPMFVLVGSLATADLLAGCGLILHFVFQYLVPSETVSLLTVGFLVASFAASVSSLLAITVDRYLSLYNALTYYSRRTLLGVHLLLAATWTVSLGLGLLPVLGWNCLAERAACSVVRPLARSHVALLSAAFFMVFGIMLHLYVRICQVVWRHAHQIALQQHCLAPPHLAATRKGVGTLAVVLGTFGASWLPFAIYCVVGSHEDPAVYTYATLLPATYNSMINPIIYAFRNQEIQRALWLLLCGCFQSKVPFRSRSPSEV
Sequence of UniProt Q9H244 (whole entry, looked up): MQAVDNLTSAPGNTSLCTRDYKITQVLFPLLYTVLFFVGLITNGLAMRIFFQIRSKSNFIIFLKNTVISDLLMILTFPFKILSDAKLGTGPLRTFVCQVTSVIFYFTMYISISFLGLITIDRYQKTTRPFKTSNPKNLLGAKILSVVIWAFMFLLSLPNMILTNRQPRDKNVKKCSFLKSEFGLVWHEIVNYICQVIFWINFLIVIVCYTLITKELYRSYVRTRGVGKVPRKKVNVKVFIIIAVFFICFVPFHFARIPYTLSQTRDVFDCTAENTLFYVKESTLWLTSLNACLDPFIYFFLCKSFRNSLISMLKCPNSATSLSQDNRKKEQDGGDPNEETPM
Sequence of UniProt P32745 (whole entry, looked up): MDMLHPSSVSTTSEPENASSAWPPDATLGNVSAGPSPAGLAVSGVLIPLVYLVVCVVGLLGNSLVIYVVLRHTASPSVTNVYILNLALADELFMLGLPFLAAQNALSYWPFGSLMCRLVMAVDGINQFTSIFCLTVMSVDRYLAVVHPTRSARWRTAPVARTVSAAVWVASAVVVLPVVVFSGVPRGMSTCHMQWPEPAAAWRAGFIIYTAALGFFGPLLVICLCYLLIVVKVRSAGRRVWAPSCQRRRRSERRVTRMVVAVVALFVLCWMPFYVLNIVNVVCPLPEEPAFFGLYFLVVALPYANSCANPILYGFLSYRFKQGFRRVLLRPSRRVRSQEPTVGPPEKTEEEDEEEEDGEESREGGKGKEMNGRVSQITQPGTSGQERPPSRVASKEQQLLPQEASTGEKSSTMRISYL
Sequence of UniProt Q8TDS5 (whole entry, looked up): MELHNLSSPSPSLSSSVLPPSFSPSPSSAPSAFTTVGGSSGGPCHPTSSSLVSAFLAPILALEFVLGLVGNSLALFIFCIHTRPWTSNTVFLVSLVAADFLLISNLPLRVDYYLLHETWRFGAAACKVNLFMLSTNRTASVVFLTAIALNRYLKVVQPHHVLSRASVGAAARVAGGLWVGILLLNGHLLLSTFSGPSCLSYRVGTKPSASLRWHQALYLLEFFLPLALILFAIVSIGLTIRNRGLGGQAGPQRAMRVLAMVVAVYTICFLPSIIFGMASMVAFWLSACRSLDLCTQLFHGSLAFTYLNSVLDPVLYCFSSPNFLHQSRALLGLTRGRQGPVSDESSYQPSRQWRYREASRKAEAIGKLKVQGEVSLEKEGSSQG

Series 1
Target: Diamine acetyltransferase 1 (Homo sapiens, UniProt P21673)
Mode: inhibitor
Tested at: 10 µM
Baseline: control
Construct (P21673 1-171): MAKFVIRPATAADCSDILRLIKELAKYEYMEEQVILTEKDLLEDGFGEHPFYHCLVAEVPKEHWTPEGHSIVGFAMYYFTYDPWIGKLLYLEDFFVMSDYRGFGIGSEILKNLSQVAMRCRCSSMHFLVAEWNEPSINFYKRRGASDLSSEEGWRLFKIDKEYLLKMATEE
| SMILES | remaining activity [%] |
| --- | --- |
| Cc1cc(O)c2c(c1)Cc1cc(O)cc(O)c1C2=O | 81.2 |
| CC1(C)[C@@H]2CC[C@@]1(C)[C@H](O)C2 | 101 |
| C=C[C@](C)(O)CC[C@@H]1[C@@]2(C)CCCC(C)(C)[C@@H]2CC[C@@]1(C)O | 98.2 |
| CCCCCCCC/C=C\CCCCCCCC(=O)OCC(O)CO (centres unmarked) | 92.6 |
| CCCCCCCCCCCCCCCCCCC(=O)O | 102 |
| CCCCCCCCCC(=O)O | 98.3 |
| O=C1c2ccccc2C(=O)c2c(O)c(O)cc(O)c21 | 111 |
| CCCCC/C=C/C=C/C=O | 93.5 |
| COc1cc2oc(-c3ccc(O)c(O)c3)cc(=O)c2c(O)c1[C@@H]1O[C@H](CO)[C@@H](O)[C@H](O)[C@H]1O | 94.1 |
| CC(=O)OC/C=C(/C)CCC=C(C)C | 90.9 |
| COc1cc(/C=C/C(=O)CC(=O)/C=C/c2ccc(O)c(OC)c2)ccc1O | 109 |

Series 2
Target: Muscarinic acetylcholine receptor M5 (CHRM5, Homo sapiens, UniProt P08912)
Sequence of UniProt P08912 (whole entry, looked up): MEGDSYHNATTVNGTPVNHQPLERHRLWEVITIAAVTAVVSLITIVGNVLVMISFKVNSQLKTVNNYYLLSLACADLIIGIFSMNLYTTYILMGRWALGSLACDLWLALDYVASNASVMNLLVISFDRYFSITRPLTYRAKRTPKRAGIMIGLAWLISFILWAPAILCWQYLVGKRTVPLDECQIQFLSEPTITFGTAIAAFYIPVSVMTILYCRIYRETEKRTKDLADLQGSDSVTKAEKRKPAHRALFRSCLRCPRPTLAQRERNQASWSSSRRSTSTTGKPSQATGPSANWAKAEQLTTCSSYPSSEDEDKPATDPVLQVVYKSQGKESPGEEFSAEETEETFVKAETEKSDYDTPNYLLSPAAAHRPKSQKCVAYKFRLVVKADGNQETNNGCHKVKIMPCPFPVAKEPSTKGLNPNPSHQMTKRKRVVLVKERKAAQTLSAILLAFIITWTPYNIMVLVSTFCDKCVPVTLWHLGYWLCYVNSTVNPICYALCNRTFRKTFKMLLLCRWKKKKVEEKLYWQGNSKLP
Read-out: ligand displacement
Tested at: 10 µM
| Compound | inhibition |
| --- | --- |
| CN1CCN(c2cnc3c(C4CCN(C(=O)c5ccc(OC(F)(F)F)cc5N)CC4)ncnc3c2)CC1 | 2.02% |
| C[C@@H](c1cccc(C#N)c1)n1cc(Cl)cc(C(N)=O)c1=N | -1.05% |
| O=C(N[C@H]1CCCCC/C=C\C2C[C@@]2(C(=O)O)NC(=O)[C@@H]2C[C@@H](Oc3ccncc3)CN2C1=O)OC1CCCC1 (some centres unmarked) | -11.5% |
| CC(=O)N1CCC(c2ccc(C(=O)NC3=NCCN3)cc2C(F)(F)F)CC1 | 14.9% |
| O=C(NCCCC1CCCCC1)c1ccc(CNC(=O)c2cnn(-c3ccccc3)c2C(F)(F)F)cc1 | -4.46% |
| CC[C@H](CC(=O)O)n1c(=O)c2ncccc2n(Cc2cn(C)c3cc(C)cc(C)c23)c1=O | 8.73% |
| COc1cc(-c2cn(C3CCc4c(F)cccc4N(CC(F)(F)F)C3=O)nn2)ccc1-n1cnc(C)c1 (centres unmarked) | 26.1% |
| COc1cc(N[C@@H]2CCCC[C@]2(O)C(F)(F)F)ccc1F | -5.5% |
| O=S(=O)(NC1CCC(c2cc(F)ccc2F)(S(=O)(=O)c2ccc(Cl)cc2)CC1)C(F)(F)F (centres unmarked) | 1.96% |
| CCOc1ccc(S(=O)(=O)Nc2ccc(Cl)cc2C#Cc2cnc(C(=O)O)cc2OC)c2ncccc12 | -6.26% |
| COCCOc1nc(-c2ccc(Cl)nc2)nc2c1CN(C(=O)c1ncn3ccccc13)CC2 | 7.79% |
| Cc1ccccc1Oc1cc(-n2c(=O)cc(C(F)(F)F)[nH]c2=O)c2ccccc2c1Cl | -5.66% |
| c1ccc(C2CCN(c3cnc4c(N5CCOCC5)nccn34)CC2)cc1 | -14.5% |
| Cc1noc([C@H]2C[C@@H](c3ccc(C(F)(F)F)cc3)CN(C(=O)N3CCS(=O)(=O)C3)C2)n1 | -1.71% |
| NC(=O)c1ccc2nc(-c3ccc(C4(N)CCC4)cc3)c(-c3ccccc3)n2n1 | 1.83% |
| CN(C)CC#Cc1ccc(OCCCc2sc(N3CCc4cccc(C(=O)Nc5nc6ccccc6s5)c4C3)nc2C(=O)O)c(F)c1 | 12.6% |
| CN(C)c1ncnc(-c2ccc3nc(Nc4cc(CN5CCN(C(=O)CC(F)(F)F)CC5)ccn4)[nH]c3c2)c1Cl | 12.4% |
| CC(=O)Nc1ncc(CN2CCC[C@H](Cc3cc(C)nc(C)c3)C2)s1 | -10.8% |
| O=C(Nc1ccc(Oc2ccc(F)cc2)cc1)N1CCc2ncccc2[C@H]1c1ccc(F)cc1 | -1.7% |

Series 3
Target: Tyrosine-protein kinase JAK2 (JAK2, Homo sapiens, UniProt O60674)
Sequence of UniProt O60674 (whole entry, looked up): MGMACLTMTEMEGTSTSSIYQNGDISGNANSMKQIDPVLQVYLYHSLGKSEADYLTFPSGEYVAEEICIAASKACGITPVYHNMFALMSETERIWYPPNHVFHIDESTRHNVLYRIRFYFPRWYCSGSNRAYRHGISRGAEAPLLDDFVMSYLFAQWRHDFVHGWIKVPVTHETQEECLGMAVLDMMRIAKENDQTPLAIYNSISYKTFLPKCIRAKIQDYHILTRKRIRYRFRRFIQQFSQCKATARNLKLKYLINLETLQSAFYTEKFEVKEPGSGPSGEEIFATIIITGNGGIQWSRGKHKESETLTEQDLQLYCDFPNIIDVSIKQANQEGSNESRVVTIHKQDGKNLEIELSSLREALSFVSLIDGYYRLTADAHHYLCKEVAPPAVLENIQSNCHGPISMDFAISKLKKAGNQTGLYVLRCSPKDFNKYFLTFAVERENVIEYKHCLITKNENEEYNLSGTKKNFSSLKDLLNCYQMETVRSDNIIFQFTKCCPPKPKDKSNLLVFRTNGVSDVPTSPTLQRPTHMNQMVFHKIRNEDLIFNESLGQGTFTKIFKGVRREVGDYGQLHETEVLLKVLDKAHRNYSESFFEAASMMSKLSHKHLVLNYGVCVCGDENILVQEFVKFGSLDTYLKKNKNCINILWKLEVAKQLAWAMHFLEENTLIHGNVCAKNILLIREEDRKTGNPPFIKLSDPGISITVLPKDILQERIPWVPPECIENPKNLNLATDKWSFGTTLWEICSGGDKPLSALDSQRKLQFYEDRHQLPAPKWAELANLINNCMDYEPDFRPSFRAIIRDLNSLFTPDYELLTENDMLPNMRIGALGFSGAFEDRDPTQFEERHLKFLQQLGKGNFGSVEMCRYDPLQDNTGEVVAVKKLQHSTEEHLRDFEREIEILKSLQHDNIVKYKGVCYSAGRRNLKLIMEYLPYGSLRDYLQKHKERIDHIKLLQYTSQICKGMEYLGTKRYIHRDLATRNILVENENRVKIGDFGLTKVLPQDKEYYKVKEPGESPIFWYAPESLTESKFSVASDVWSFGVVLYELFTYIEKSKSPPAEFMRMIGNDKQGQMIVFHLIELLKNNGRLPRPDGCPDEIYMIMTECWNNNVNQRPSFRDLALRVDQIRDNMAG
Read-out: enzyme activity
Mode: inhibitor
Tested at: 0.5 µM
Baseline: control
| Structure (SMILES) | remaining activity |
| --- | --- |
| COc1cccc(-c2cc(=O)c3ccccc3o2)c1N | 104% |
| CN1CCN(c2ccc3nc(-c4c(N)c5c(F)cccc5[nH]c4=O)[nH]c3c2)CC1 | 92% |
| c1ccc(-c2n[nH]c3c2oc2ccccc23)cc1 | 89.8% |
| CN(C)S(=O)(=O)c1ccc2c(c1)/C(=C/c1cc3c([nH]1)CCCC3)C(=O)N2 | 46.1% |
| O=C1Nc2ccccc2/C1=C\c1c(Cl)[nH]c2ccccc12 | 103% |
| Oc1cccc(-c2nc(N3CCOCC3)c3oc4ncccc4c3n2)c1 | 92.6% |
| O=C(c1cc2cc(O)ccc2[nH]1)c1cc2cc(O)ccc2[nH]1 | 95.6% |
| CCCNC(=O)Nc1ccc(Oc2ncnc3cc(OC)c(OC)cc23)cc1Cl | 96.9% |
| O=C1NC(=O)c2c1c1c3ccccc3[nH]c1n1cncc21 | 117% |
| Cc1cc(Nc2cc(N3CCN(C)CC3)nc(Sc3ccc(NC(=O)C4CC4)cc3)n2)[nH]n1 | 75.5% |
| COc1ccc2c(c1)c(C1=C(c3c[nH]c4ccccc34)C(=O)NC1=O)cn2CCCN(C)C | 97.5% |
| Cc1ccc(S(=O)(=O)/C=C/C#N)cc1 | 99.5% |
| c1ccc2c(-c3ccncc3)c[nH]c2c1 | 93.8% |

Series 4
SMILES: N=C(N)NC(=O)c1cnn(-c2cccc3ncccc23)c1C1CC1
Read-out: β-arrestin recruitment
Mode: agonist
Technique: PRESTO-Tango
Tested at: 10 µM
Baseline: untreated
| target | fold over basal |
| --- | --- |
| C3AR1 (Homo sapiens, UniProt Q16581) | 1.05 |
| G-protein coupled receptor 6 (Homo sapiens, UniProt P46095) | 1.09 |
| G-protein coupled receptor 161 (GPR161, Homo sapiens, UniProt Q8N6U8) | 1.01 |
| P2Y purinoceptor 12 (P2RY12, Homo sapiens, UniProt Q9H244) | 1.13 |
| C5AR2 (Homo sapiens, UniProt Q9P296) | 1.1 |
| ADGRF1 (Homo sapiens, UniProt Q5T601) | 1.13 |
| P2Y purinoceptor 2 (P2RY2, Homo sapiens, UniProt P41231) | 0.86 |
| FFAR2 (Homo sapiens, UniProt O15552) | 0.74 fold |
| RXFP3 (Homo sapiens, UniProt Q9NSD7) | 1.29 |
| SSTR3 (Homo sapiens, UniProt P32745) | 0.81 fold |
| OXER1 (Homo sapiens, UniProt Q8TDS5) | 1.11 |
| CNR1 (Homo sapiens, UniProt P21554) | 1.21 |
| GHSR (Homo sapiens, UniProt Q92847) | 1.23 fold |

Excerpt of the above (series 3):
| Structure (SMILES) | remaining activity |
| --- | --- |
| O=C1NC(=O)c2c1c1c3ccccc3[nH]c1n1cncc21 | 117% |
| Cc1ccc(S(=O)(=O)/C=C/C#N)cc1 | 99.5% |
| CCCNC(=O)Nc1ccc(Oc2ncnc3cc(OC)c(OC)cc23)cc1Cl | 96.9% |
| c1ccc2c(-c3ccncc3)c[nH]c2c1 | 93.8% |
| Oc1cccc(-c2nc(N3CCOCC3)c3oc4ncccc4c3n2)c1 | 92.6% |
| CN(C)S(=O)(=O)c1ccc2c(c1)/C(=C/c1cc3c([nH]1)CCCC3)C(=O)N2 | 46.1% |
| CN1CCN(c2ccc3nc(-c4c(N)c5c(F)cccc5[nH]c4=O)[nH]c3c2)CC1 | 92% |
| Cc1cc(Nc2cc(N3CCN(C)CC3)nc(Sc3ccc(NC(=O)C4CC4)cc3)n2)[nH]n1 | 75.5% |
